Assay results gathered from unrelated publications.
Every numbered part comes from another study and shows a few of its results, in no order.

Block 1
Target: Histone acetyltransferase KAT6A, winged helix 1, GST fusion (KAT6A, Homo sapiens, UniProt Q92794, residues 1-85)
Method: protein binding microarray
Molecule type: double-stranded DNA, one strand shown
Medium: in vitro
Tested at: not given
Notes: 8-mer, flanks averaged, mean of 2 arrays, mostly near background
Baseline: not given
Reading: higher = stronger binding
Construct (chain): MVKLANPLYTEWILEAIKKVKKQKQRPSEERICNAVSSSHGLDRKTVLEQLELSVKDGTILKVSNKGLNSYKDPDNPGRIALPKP
Sequence	E-score
AGGATCCA	-0.107
ACCCGCCG	0.463
AGAATACT	-0.254
ACCATAGG	-0.143
AGGGAAAG	-0.164
AGCCATTA	-0.0951
ACTGTTAC	0.0405
CAGGACTA	-0.174
GACGCCGA	0.25
ACTCCTAG	-0.0741
CAATTGGG	-0.189
AGCCGCTC	0.37

Block 2
Target: RNA binding protein fox-1 homolog 2, RRM domain, GST-SBP tag (RBFOX2, Homo sapiens, UniProt O43251-10, residues 100-194)
Method: RNA Bind-n-Seq
Molecule type: RNA
Medium: in vitro
Tested at: 365 nM
Notes: natural RNA segment, single round, ends assumed
Baseline: no-protein control
Reading: higher = stronger binding
Constant ends, left off below: GGGAGUUCUACAGUCCGACGAUC … UGGAAUUCUCGGGUGCCAA
Residues (chain): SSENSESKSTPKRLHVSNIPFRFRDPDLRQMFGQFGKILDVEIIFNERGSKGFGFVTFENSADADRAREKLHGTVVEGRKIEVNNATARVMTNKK
Sequence	RBNS enrichment (R)
UUGGGGCAGGAGGGAUCGCAGUUCUUCAAAUUCAGGUCUUCGAAGAUAAUUUCCAGGUGUCUUCUCAAACGGAGUAAGCGCCUGGAUCCAAAUGGUAGACUACUUGACCC	0.528
AUCUGGGAAGCCGGGGCACCCCCGUUUUGUUUCUCUGGGCGGUUGUGGCAGCUGAAGGCGGACGUUGUUUCCUAACCAUAGGUGGAACGAGGAGACGGGAGCGAGUGGGC	0.584
CACAGACACACUGUGUCUUGUGUCUUGUGAGUCCAGCACCUGGUCCCACCCUCAGUCCCCAUGUUAGUCUUGGUUGUGCCUGUCUUUAACCACAGCCUCACAGCUGGUCU	0.779
CCAUGAUAGUACCAGGGACAGGUUUUAAUAGAAAUUUAAGCUAUUUGUAUUACGAACAUAGGAGUGUCCACAUGUUGUUGUAACUCUGUCCUGCAAGAGCAGGUAUUCCA	0.629
GUAAAAUAUAUUUGGAAUUUGAUGAACCAAAAAUGUGAUUUCAGAUGACUAUUUUGUGACUUUCUUAAAAGGUCUGAUUUGUAGACUUCUAAAUAUAACACACAGCACAG	0.503
UGCUCUCUCCGCUCUGAGUGGCCCUCGGGGAACCACCUGCUUUCCAUCUGUGGGGUGGGGCGCUCGCUCCGAGUAUGUGUGGCAAGGUGGAGGCCACAAUGCCAAGGUUC	0.494
CUGGCCCAGCUCUUAGCUUGUUCUGAGGGUUCUGCUGUGAGGUGAGGGCCCCAUCUCAGCAUCGUAGUUACAUAGUUGAUCUUAACUAAGCUUGGGAAUACGUCACCUGA	0.323
CUUAAGUUGUAAAAAUUGAGAGUACAAUAUCUUUAGGGAUAGUCAUUAUUUCUCACAACUAGUUCUCUACGAGAGAUUUUGUUUCUACAAUGUAGUCAGCACUUAAUGGA	0.465
CACAAUCAUGCCAGCCAACAUUCCAGAAUUCUGCUGAGAACUCCAAGUCUGUGAGGGGAGAGGUUUUACAAGCCAGACAGGCCUGGGGGACUGCAGUCCCCAAGGAGACC	0.519
CAGAUUACAAGCCUCCAGCAACACGUUGAGCGAUAAAGUAAUGAUCCCCCAAGACGAAUAUCCAGAAAUCAAUUUUGUGGGGCUCCUAAUUGGACCCAGGGGGAACACCC	0.343
CAUUUCAGCAUUUGGCAAGUUCUCUCUUGCUGGCGUCAGAGUAGCUGGCCCAGCUCUUAGCUUGUUCUGAGGGUUCUGCUGUGAGGUGAGGGCCCCAUCUCAGCAUCGUA	1.61
CCUCUCUAGAGCCUUCCUCAGAGCUGUGCAAGCAUGGGAGCCUCUCCUUGCUCCUCCCAGUCCUGCACUGGCAUGAGUUCGGGUGUAGGAGGACAUGACUCCAAGGUGCU	1

Block 3
Target: Fragile X messenger ribonucleoprotein 1, C-terminal low-complexity region (Fmr1, Mus musculus, UniProt P35922)
Method: RNA Bind-n-Seq
Molecule type: RNA
Medium: in vitro
Tested at: 200 nM
Notes: whole 134-nt RNA, ends assumed
With: 150 mM LiCl
Baseline: input library
Reading: higher = stronger binding
All molecules: 7-deaza-guanosine replaces G
Constant ends, left off below: GGGAGUUCUACAGUCCGACGAUC … UGGAAUUCUCGGGUGUCAAGG
Sequence	log2 enrichment
GUCCUGUGCUACACAUCGUAUGUACCGAAUCAAAUUUUUUUAAAUUUAAACCCCCAAAAAAGUAUUAUGUUACGCCGUUCGGAUCUGCAC	0.313
AAGUCCUGUGCUACACAUCGUAUGUACCGAAUCGGAAAAAGGAAAAAGGAAAAAGGAAAGUAUUAUGUUACGCCGUUCGGAUCUGCACUU	-1.57
UGUUCCUGUUGAUGAAAAUCUUUUCACUGGAGAGGAUUUGGAUGAACUAGAAGAAGAAUUAAAUACACUUGAUUUAGAAGAAUGACACCA	-1.29
UCAAGUCCUGUGCUACACAUCGUAUGUACCGAAUCGGGUUGGGGUUGGGGUUGGGAAAGUAUUAUGUUACGCCGUUCGGAUCUGCACUUC	-1.13
GUCCUGUGCUACACAUCGUAUGUACCGAAUCAAACCCCCAAACCCAAACCCCCCCAAAAAAGUAUUAUGUUACGCCGUUCGGAUCUGCAC	0.781
CACAGACAACACGCACCCACACAGACACAGAGGGAAGGGGUUGGGAUGGGGACAGGGUGCACAGCAGGGCGGGGUAGGAGCCCAGCCCCU	1.18
ACUGGACCAGAUUGUUGAAAAAGGAAGACCAGCUCCUGGCUUCCAUCAUGGCGAUGGACCGGGAAAUGCAGUUCAAGAAAUCAUGAUUCC	-2.03
CUCAAGUCCUGUGCUACACAUCGUAUGUACCGAAUCGGCCGGGCCGGGCCGGGGAAAGUAUUAUGUUACGCCGUUCGGAUCUGCACUUCC	0.4
CUCAAGUCCUGUGCUACACAUCGUAUGUACCGAAUCGGUUUUUUUGGUGGUGGAAAGUAUUAUGUUACGCCGUUCGGAUCUGCACUUCCA	-0.0384
AAGUCCUGUGCUACACAUCGUAUGUACCGAAUCGGGAAAAGGGGAAAAGGAAAAGGGAAAGUAUUAUGUUACGCCGUUCGGAUCUGCACU	0.11
CUGUGCUACACAUCGUAUGUACCGAAUCAAACCCCCCCAAACCCCCCCAAACCCCCCCAAAAAAGUAUUAUGUUACGCCGUUCGGAUCUG	0.82

Other studies, line by line
Substance	target	assay	test system	setting	scale	quantity	result
PhoQ, residues 284 288 289 292 302 303 TYGVAM	PhoP, residues 12 14 15 18 19 TPLRH (Escherichia coli, UniProt P23836)	Sort-seq, measured: YFP reporter	E. coli	PhoQ-PhoP variant library, with: 10 µM Mg2+	baseline: high Mg2+ state, higher = stronger signaling	fold induction	2.72

For quick reference, copied from above (block 1):
Sequence	E-score
CAATTGGG	-0.189
AGGATCCA	-0.107
ACCATAGG	-0.143
